Experimental data gathered from unrelated publications.
Each numbered part is a random draw from the data of one study; scales do not carry over between parts. Positions count from the first letter of the parent shown.

Sample 1
Target: CCNF, cyclin fold, Cln2 fusion (human)
Technique: yeast growth competition, sequencing
Sample: yeast
Setting: strong parent motif
Relative to: not given
Reading: higher = stronger binding
Starting sequence: SCAPER docking peptide (human); SNARRSLNFGGST
`SNARRSMNFGGST [L7M]`: “normalised enrichment score” 0.907.
`SNARRSLNFLGST [G10L]`: “normalised enrichment score” 7.14.
`SNNRRSLNFGGST [A3N]`: “normalised enrichment score” 1.9.

Sample 2
Target: Sal-like protein 4, full length isoform A (SALL4, Homo sapiens, UniProt Q9UJQ4, residues 1-1053)
Sequence of UniProt Q9UJQ4 (whole entry, looked up): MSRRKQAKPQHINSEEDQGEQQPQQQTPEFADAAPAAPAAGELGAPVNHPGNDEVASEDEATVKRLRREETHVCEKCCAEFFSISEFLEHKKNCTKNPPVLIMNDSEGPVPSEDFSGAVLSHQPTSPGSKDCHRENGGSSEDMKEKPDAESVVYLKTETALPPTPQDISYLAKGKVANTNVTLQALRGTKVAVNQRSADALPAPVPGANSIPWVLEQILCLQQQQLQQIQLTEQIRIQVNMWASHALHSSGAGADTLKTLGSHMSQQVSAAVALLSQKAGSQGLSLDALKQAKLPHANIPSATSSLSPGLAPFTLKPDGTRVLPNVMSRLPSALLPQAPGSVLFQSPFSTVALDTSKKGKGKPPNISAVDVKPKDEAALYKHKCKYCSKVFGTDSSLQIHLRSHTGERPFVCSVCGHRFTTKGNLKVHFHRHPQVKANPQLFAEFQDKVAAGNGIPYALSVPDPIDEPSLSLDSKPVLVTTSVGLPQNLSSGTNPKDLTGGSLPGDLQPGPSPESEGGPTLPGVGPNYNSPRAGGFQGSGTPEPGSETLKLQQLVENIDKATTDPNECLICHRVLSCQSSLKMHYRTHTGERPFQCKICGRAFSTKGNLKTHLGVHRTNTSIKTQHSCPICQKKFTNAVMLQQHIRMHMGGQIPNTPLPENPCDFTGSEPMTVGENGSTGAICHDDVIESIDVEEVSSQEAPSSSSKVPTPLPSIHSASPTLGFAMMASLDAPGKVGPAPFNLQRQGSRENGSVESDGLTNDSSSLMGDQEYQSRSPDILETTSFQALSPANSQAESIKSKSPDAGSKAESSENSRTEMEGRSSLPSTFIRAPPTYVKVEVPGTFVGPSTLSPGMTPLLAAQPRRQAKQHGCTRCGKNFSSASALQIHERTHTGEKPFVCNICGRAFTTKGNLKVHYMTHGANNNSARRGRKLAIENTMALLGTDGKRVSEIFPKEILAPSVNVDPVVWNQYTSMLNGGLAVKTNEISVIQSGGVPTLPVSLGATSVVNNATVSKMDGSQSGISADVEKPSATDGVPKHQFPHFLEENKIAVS
Technique: universal PBM
Form: double-stranded DNA, one strand shown
Sample: in vitro
Concentration: 600 nM
Setting: 8-mer, flanks averaged, mean of replicates
Reading: higher = stronger binding
The E-score of `GTCGTGTA` is reported as 0.0447.
The E-score of `ACCGCGCA` is reported as -0.238.
With `AGCTTCGG` the E-score was -0.158.
For `CTCGTGGA`, the E-score was -0.139.
For `GGCGAACC`, the E-score was -0.263.
`GCGCGGAC` gave an E-score of -0.291.
`CATAGGTC` has an E-score of 0.036.
`AAAGCCCG` gave an E-score of -0.135.

Sample 3
Target: Interferon regulatory factor 5, full length, phosphomimetic (IRF5, Homo sapiens, UniProt Q13568-2, residues 1-514, K96S/S451D/S453D/S456D/S462D)
Technique: protein-binding microarray
Form: double-stranded DNA, one strand shown
Sample: in vitro
Concentration: 250 nM
Setting: 60-bp whole probe
Together with: salmon DNA 0.4 mg/ml
Relative to: random background probes
Reading: higher = stronger binding
Shared flanks, not repeated: GCCTAGCAC … GTCTTGATTCGCTTGACGCTGCTG
For `TTAGGTCTCGGTTTCGTTTAGTGCTAG`, the log fluorescence was 5.76 z-score.
With `ATTGTTTCCTTCCTCTTTTAGTGCTAG` the log fluorescence was 1.82 z-score.
For `TTAGGACTGGACTATCGGTAAGTGCTA`, the log fluorescence was 3.97 z-score.
For `AACGATTTCAGTTTCGAGACGTGCTAG`, the log fluorescence was 7.15 z-score.
For `TCACTTTTCACTTTCTTACTGTGCTAG`, the log fluorescence was 3.36 z-score.
The log fluorescence of `GACGGTATCGGACTGGGGACGTGCTAG` is reported as 0.954 z-score.
For `TCATCTTTCTAATTCAAACTGTGCTAG`, the log fluorescence was 1.59 z-score.

Mixed results
`PhoQ, residues 284 288 289 292 302 303 SLSLLA` has a fold induction of 1.13 (PhoP, residues 12 14 15 18 19 LFHKL (Escherichia coli, UniProt P23836); Sort-seq, refers to: YFP reporter; E. coli; PhoQ-PhoP variant library, together with: 10 µM Mg2+; relative to: high Mg2+ state, higher = stronger signaling).

For quick reference, copied from above (sample 2):
With `AGCTTCGG` the E-score was -0.158.
For `GGCGAACC`, the E-score was -0.263.
For `CTCGTGGA`, the E-score was -0.139.
